Measured values gathered from unrelated publications.
Organism: Salmonella enterica

SMILES | assay | test system | setting | measurement | result
CC(C)=CCc1cc2c(cc1O)OCc1c-2oc2c(CC=C(C)C)c(O)ccc12 | microbial growth | TYPHI |  | MIC | 128 µg/mL
Oc1c(Br)ccc2cccnc12 | microbial growth, agar dilution | ATCC10708 CHOLERAESUIS |  | MIC | 71.4 µM
COc1c(CC=C(C)C)c(O)cc2c1[C@@H]1Oc3c(ccc(O)c3CC=C(C)C)[C@@H]1CO2 | microbial growth | TYPHI |  | MIC | 128 µg/mL
Cc1c2oc3c(C)ccc(C(=O)N[C@@H]4C(=O)N[C@H](C(C)C)C(=O)N5[C@H](C(=O)N(C)CC(=O)N(C)[C@@H](C(C)C)C(=O)O[C@@H]4C)[C@@H](O)C[C@@H]5C)c3nc-2c(C(=O)N[C@@H]2C(=O)N[C@H](C(C)C)C(=O)N3CC(=O)C[C@H]3C(=O)N(C)CC(=O)N(C)[C@@H](C)C(=O)O[C@@H]2CO)c(N)c1=O | broth microdilution | ATCC 10708 | 16 to 48 h | MIC | > 9.33 µg/mL
COc1ccc2c(c1CC=C(C)C)O[C@H]1c3cc(CC=C(C)C)c(O)cc3OC[C@@H]21 | microbial growth | TYPHI |  | MIC | 128 µg/mL
CC[C@H](C)[C@H](NC(=O)[C@H](CCCCN)NC(=O)[C@H](CCCCN)NC(=O)[C@H](CC(C)C)NC(=O)[C@H](CCCCN)NC(=O)[C@H](CCC(=O)O)NC(=O)[C@H](CCCCN)NC(=O)[C@@H](NC(=O)[C@H](CCCCN)NC(=O)[C@H](CC(N)=O)NC(=O)[C@H](CCCNC(=N)N)NC(=O)[C@H](Cc1ccccc1)NC(=O)[C@H](CCCCN)NC(=O)[C@H](CCCNC(=N)N)NC(=O)[C@H](CC(C)C)NC(=O)[C@H](CCCNC(=N)N)NC(=O)[C@H](CCCCN)NC(=O)[C@H](CCCNC(=N)N)NC(=O)[C@@H](N)CC(C)C)[C@@H](C)CC)C(=O)NCC(=O)N[C@@H](CCC(N)=O)C(=O)N[C@@H](CCCCN)C(=O)N[C@H](C(=O)N[C@@H](CCC(N)=O)C(=O)NCC(=O)N[C@@H](Cc1ccccc1)C(=O)N[C@H](C(=O)N1CCC[C@H]1C(=O)N[C@@H](CCCCN)C(=O)N[C@@H](CC(C)C)C(=O)O)C(C)C)[C@@H](C)CC | inhibition zone | ATCC 14028 | LB agar, overnight | lethal concentration | 1.47 µM
N#Cc1ccc2cccc(O)c2n1 | microbial growth, agar dilution | ATCC10708 CHOLERAESUIS |  | MIC | > 1500 µM
N=C(N)NCCC[C@H](NC(=O)[C@H](CS)NC(=O)[C@H](Cc1ccc(O)cc1)NC(=O)[C@H](Cc1c[nH]c2ccccc12)NC(=O)[C@H](CCCNC(=N)N)NC(=O)[C@H](Cc1c[nH]c2ccccc12)NC(=O)[C@H](Cc1c[nH]cn1)NC(=O)CNC(=O)CN)C(=O)NCC(=O)NCC(=O)N[C@@H](CCCCN)C(N)=O |  |  |  | MIC | 1 µM
CC[C@H](C)[C@H](NC(=O)[C@H](CCCCN)NC(=O)[C@H](CCCCN)NC(=O)[C@H](CC(C)C)NC(=O)[C@H](CCCCN)NC(=O)[C@H](CCC(=O)O)NC(=O)[C@H](CCCCN)NC(=O)[C@@H](NC(=O)[C@H](CCCCN)NC(=O)[C@H](CC(N)=O)NC(=O)[C@H](CCCNC(=N)N)NC(=O)[C@H](Cc1ccccc1)NC(=O)[C@H](CCCCN)NC(=O)[C@H](CCCNC(=N)N)NC(=O)[C@H](CC(C)C)NC(=O)[C@H](CCCNC(=N)N)NC(=O)[C@H](CCCCN)NC(=O)[C@H](CCCNC(=N)N)NC(=O)[C@H](CC(C)C)NC(=O)[C@@H](N)CC(C)C)[C@@H](C)CC)C(=O)NCC(=O)N[C@@H](CCC(N)=O)C(=O)N[C@@H](CCCCN)C(=O)N[C@H](C(=O)N[C@@H](CCC(N)=O)C(=O)NCC(=O)N[C@@H](Cc1ccccc1)C(=O)N[C@H](C(=O)N1CCC[C@H]1C(=O)N[C@@H](CCCCN)C(=O)N[C@@H](CC(C)C)C(=O)N[C@H](C(=O)N1CCC[C@H]1C(=O)N[C@@H](CCCNC(=N)N)C(=O)N[C@H](C(=O)N[C@@H](CCC(=O)O)C(=O)N[C@@H](CO)C(=O)O)[C@@H](C)O)C(C)C)C(C)C)[C@@H](C)CC | inhibition zone | ATCC 14028 | LB agar, overnight | lethal concentration | 2.65 µM
N=C(N)NCCC[C@@H]1NC(=O)[C@H](CCCNC(=N)N)NC(=O)[C@H](CCCNC(=N)N)NC(=O)[C@H](CCCNC(=N)N)NC(=O)[C@H](Cc2c[nH]c3ccccc23)NC(=O)[C@H](CCCNC(=N)N)NC(=O)[C@H](CCCNC(=N)N)NC(=O)[C@@H](N)CCCn2cc(nn2)C[C@@H](C(N)=O)NC1=O |  |  | 24 h, 37 °C | MIC | 250 µg/mL
CC(=O)[O-].O.O.O.O.[Ni+2].[O-]c1ccc(Br)cc1C=NCCN1CCOCC1 |  | serovar Typhi | 20 µL of 100 µM per disc | inhibition zone diameter | 28 mm
Cc1c2oc3c(C)ccc(C(=O)N[C@@H]4C(=O)N[C@H](C(C)C)C(=O)N5[C@@H](C)CC[C@H]5C(=O)N(C)CC(=O)N(C)[C@@H](C(C)C)C(=O)O[C@@H]4C)c3nc-2c(C(=O)N[C@@H]2C(=O)N[C@H](C(C)C)C(=O)N3CC(=O)C[C@H]3C(=O)N(C)CC(=O)N(C)[C@@H](C)C(=O)O[C@@H]2C)c(N)c1=O | broth microdilution | ATCC 10708 | 16 to 48 h | MIC | > 9.57 µg/mL
N=C(N)NCCC[C@H](NC(=O)[C@H](CS)NC(=O)[C@H](Cc1ccc(O)cc1)NC(=O)[C@H](Cc1c[nH]c2ccccc12)NC(=O)[C@H](CCCNC(=N)N)NC(=O)[C@H](Cc1c[nH]c2ccccc12)NC(=O)CNC(=O)[C@H](Cc1c[nH]cn1)NC(=O)CNC(=O)CN)C(N)=O |  |  |  | MIC | 6 µM
COc1c2c(cc3c1[C@@H]1Oc4c(ccc(O)c4CC=C(C)C)[C@@H]1CO3)OC(C)(C)C=C2 | microbial growth | TYPHI |  | MIC | 128 µg/mL
Cc1c2oc3c(C)ccc(C(=O)N[C@@H]4C(=O)N[C@H](C(C)C)C(=O)N5[C@H](C(=O)N(C)CC(=O)N(C)[C@@H](C(C)C)C(=O)O[C@@H]4C)[C@@H](O)C[C@@H]5C)c3nc-2c(C(=O)N[C@@H]2C(=O)N[C@H](C(C)C)C(=O)N3CC(=O)C[C@H]3C(=O)N(C)CC(=O)N(C)[C@@H](C)C(=O)O[C@@H]2C)c(N)c1=O | broth microdilution | ATCC 10708 | 16 to 48 h | MIC | > 9.45 µg/mL

For quick reference, copied from above:
SMILES | assay | test system | setting | measurement | result
N=C(N)NCCC[C@H](NC(=O)[C@H](CS)NC(=O)[C@H](Cc1ccc(O)cc1)NC(=O)[C@H](Cc1c[nH]c2ccccc12)NC(=O)[C@H](CCCNC(=N)N)NC(=O)[C@H](Cc1c[nH]c2ccccc12)NC(=O)CNC(=O)[C@H](Cc1c[nH]cn1)NC(=O)CNC(=O)CN)C(N)=O |  |  |  | MIC | 6 µM
Cc1c2oc3c(C)ccc(C(=O)N[C@@H]4C(=O)N[C@H](C(C)C)C(=O)N5[C@H](C(=O)N(C)CC(=O)N(C)[C@@H](C(C)C)C(=O)O[C@@H]4C)[C@@H](O)C[C@@H]5C)c3nc-2c(C(=O)N[C@@H]2C(=O)N[C@H](C(C)C)C(=O)N3CC(=O)C[C@H]3C(=O)N(C)CC(=O)N(C)[C@@H](C)C(=O)O[C@@H]2CO)c(N)c1=O | broth microdilution | ATCC 10708 | 16 to 48 h | MIC | > 9.33 µg/mL
